Results pooled from the literature.
Lines come from different studies, so protocols differ. Several values in a cell are separate wells, animals, samples, runs or records. Numbers after ± are the reported error.
Oprk1: Kappa-type opioid receptor (Oprk1, Rattus norvegicus, UniProt P34975)
Sequence of UniProt P34975 (whole entry, looked up): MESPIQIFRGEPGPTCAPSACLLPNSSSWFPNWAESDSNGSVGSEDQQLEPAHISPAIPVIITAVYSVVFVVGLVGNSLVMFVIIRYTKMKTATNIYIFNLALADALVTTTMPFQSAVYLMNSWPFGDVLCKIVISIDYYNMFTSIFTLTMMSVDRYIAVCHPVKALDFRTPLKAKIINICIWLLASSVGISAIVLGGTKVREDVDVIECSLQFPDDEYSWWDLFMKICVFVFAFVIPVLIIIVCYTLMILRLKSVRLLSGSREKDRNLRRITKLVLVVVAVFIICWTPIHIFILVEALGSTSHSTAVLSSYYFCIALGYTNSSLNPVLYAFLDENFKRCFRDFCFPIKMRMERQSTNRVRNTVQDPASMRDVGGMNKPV
ampC: Beta-lactamase (ampC, Escherichia coli K-12, UniProt P00811)
Sequence of UniProt O95665 (whole entry, looked up): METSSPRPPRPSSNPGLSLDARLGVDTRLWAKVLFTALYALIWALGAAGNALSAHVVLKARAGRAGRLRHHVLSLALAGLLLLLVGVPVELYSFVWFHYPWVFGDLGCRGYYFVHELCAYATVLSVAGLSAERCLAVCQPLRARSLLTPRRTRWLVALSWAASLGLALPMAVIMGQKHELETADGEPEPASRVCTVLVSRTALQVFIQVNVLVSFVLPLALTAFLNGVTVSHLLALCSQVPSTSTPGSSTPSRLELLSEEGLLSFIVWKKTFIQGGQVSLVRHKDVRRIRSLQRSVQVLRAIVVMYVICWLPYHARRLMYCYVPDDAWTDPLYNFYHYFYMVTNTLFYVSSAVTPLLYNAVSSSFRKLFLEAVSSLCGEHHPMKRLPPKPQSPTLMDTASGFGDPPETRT
Sequence of UniProt P00811 (whole entry, looked up): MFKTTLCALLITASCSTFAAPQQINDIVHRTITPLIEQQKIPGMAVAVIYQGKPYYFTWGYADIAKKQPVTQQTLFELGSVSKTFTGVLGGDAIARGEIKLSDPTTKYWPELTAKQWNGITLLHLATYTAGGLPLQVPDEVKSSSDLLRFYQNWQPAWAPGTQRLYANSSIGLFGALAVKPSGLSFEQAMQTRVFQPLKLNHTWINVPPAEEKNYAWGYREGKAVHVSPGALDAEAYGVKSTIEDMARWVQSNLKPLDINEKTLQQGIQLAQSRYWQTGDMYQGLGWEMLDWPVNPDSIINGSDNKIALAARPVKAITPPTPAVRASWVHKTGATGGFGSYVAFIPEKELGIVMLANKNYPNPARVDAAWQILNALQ
Sequence of UniProt Q2FV99 (whole entry, looked up): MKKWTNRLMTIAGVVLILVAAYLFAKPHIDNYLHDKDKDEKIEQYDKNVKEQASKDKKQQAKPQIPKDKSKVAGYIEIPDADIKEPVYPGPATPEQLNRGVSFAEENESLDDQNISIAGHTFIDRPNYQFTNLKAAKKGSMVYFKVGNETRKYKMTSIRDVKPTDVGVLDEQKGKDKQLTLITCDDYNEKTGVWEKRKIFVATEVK
Sequence of UniProt Q04828 (whole entry, looked up): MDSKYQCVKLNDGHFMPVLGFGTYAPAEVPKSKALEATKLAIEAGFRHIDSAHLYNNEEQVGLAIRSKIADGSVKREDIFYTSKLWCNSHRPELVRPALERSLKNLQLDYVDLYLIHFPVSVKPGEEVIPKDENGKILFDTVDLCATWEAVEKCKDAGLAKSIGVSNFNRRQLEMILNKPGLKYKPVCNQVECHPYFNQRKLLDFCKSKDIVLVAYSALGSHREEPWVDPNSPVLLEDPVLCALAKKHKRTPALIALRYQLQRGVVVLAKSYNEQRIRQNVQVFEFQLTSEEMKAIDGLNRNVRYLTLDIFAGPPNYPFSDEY
Sequence of UniProt P69905 (whole entry, looked up): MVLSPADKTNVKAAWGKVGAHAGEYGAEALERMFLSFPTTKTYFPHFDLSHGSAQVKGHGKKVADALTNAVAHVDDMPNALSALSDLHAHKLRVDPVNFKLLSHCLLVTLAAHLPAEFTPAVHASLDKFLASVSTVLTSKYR
Sequence of UniProt P11229 (whole entry, looked up): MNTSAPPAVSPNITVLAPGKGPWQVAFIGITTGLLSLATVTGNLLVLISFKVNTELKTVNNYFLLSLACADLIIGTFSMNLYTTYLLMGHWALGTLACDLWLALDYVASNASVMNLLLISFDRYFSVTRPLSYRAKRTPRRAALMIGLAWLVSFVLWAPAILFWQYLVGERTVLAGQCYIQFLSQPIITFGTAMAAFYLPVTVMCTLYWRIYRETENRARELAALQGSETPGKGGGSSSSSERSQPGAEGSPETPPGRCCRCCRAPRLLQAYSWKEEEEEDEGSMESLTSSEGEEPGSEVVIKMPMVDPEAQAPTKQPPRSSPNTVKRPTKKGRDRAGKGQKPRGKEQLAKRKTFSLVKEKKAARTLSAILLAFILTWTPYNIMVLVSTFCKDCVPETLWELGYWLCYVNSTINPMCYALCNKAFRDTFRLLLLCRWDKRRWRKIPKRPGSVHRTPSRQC
Sequence of UniProt Q12908 (whole entry, looked up): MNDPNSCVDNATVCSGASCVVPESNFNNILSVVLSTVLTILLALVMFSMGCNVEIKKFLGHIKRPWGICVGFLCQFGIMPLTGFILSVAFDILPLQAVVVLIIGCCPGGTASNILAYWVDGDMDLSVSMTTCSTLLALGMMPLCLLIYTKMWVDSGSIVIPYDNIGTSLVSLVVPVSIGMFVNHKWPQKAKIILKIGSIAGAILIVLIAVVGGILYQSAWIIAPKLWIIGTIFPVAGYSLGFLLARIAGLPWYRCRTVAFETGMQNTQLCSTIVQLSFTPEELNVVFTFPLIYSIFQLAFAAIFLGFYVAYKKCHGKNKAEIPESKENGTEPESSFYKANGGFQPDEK
Sequence of UniProt Q96SW2 (whole entry, looked up): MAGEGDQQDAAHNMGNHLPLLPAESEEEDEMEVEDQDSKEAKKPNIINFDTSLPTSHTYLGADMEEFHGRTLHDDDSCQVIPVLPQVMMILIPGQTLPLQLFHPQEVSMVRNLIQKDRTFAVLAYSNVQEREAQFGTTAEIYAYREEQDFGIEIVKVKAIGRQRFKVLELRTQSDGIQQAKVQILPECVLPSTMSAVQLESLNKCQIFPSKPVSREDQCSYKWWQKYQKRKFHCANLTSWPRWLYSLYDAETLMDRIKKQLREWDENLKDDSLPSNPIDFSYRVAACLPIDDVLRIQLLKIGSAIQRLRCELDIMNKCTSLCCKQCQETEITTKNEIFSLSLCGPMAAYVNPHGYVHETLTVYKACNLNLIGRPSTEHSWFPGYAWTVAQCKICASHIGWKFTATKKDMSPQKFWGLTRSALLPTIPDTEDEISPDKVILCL
Sequence of UniProt P0C0V0 (whole entry, unmodified, looked up): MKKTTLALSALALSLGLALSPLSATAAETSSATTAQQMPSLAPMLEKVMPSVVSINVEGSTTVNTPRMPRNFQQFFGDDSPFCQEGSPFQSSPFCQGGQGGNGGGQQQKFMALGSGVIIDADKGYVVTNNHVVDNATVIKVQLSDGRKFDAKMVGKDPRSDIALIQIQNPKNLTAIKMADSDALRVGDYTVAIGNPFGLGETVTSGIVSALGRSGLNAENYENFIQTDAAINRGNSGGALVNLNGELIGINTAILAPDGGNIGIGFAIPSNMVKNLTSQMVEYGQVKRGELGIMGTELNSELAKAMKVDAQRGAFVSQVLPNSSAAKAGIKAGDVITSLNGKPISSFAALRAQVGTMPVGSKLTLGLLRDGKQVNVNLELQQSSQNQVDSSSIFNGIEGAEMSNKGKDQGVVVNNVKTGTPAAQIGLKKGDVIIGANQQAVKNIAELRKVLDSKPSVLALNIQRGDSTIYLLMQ
Sequence of UniProt P21564 (whole entry, unmodified, looked up): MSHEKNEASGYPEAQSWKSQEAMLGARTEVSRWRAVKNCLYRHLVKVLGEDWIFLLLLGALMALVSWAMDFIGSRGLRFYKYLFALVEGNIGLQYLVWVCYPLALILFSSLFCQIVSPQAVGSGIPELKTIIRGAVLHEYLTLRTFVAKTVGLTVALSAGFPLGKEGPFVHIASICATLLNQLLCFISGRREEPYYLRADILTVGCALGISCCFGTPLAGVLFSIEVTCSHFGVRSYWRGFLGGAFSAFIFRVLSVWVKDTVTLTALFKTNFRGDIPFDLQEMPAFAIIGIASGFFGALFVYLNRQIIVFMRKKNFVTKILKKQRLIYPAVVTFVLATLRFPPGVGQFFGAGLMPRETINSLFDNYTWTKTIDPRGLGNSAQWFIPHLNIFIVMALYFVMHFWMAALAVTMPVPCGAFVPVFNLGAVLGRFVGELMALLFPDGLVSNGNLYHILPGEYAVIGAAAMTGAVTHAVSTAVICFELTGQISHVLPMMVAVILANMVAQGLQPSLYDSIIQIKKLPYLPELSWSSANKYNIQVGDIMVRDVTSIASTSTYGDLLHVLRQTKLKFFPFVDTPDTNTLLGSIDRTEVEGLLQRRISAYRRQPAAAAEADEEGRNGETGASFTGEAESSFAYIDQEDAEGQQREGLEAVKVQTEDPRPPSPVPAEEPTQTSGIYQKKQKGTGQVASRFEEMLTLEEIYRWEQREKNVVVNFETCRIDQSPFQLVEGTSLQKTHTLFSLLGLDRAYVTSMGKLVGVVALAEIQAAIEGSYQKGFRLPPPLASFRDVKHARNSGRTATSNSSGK
Sequence of UniProt Q8VD00 (whole entry, looked up): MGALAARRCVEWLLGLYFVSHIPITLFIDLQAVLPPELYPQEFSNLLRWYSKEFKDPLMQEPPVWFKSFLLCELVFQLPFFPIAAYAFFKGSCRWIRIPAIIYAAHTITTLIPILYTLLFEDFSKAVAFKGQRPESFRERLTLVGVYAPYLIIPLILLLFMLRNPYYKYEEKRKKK

| Structure (SMILES) | target | assay | test system | conditions | how to read | measurement | result |
| --- | --- | --- | --- | --- | --- | --- | --- |
| CC(C)C[C@H](NC(=O)[C@H](Cc1ccc2ccccc2c1)NC(=O)CNC(=O)[C@H](NC(=O)[C@@H](N)Cc1ccc(O)cc1)[C@H](C)O)C(=O)N[C@@H](CO)C(N)=O | OPRK1 (Homo sapiens, UniProt P41145) | GTPγS binding, agonist, radiometric |  | cell membranes |  | Emax | 25% |
| CCN1CCCC1CNC(=O)c1cc(Br)cc(OC)c1O[11CH3] (stereo not drawn) | dopamine D2/D3 receptor | binding, multiple-injection PET | rhesus monkey, substantia nigra |  |  | Bmax | 3.3 nmol/L |
| COc1cc(C=O)ccc1OCc1cccc(CO)n1 | Hemoglobin subunit alpha, with beta chain (HBA1, Homo sapiens, UniProt P69905) | kinetic binding, cation-exchange HPLC |  | 37 °C |  | koff | 2.78e-05 s⁻¹ |
| C[C@]1(COC(=O)Cc2ccc(O)c(O)c2)[C@H](C(=O)O)N2C(=O)/C(=C/c3ccccn3)[C@H]2S1(=O)=O | OXA-23 (Acinetobacter baumannii, UniProt Q9L4P2) | enzyme activity, inhibitor, absorbance |  |  |  | kinact | 0.041 s⁻¹ |
| Cn1cc(-c2cccc(CN3CCC4(CC3)COc3c4ccc4c3CN([C@H]3CCC(=O)NC3=O)C4=O)c2)cn1 | CRBN/Zinc finger protein Helios (Homo sapiens, UniProt Q96SW2+Q9UKS7) | degrader, flow cytometry | Jurkat |  |  | Dmax | 65% |
| CC(C)C[C@H](NC(=O)[C@H](CCCNC(=N)N)NC(=O)[C@H](Cc1c[nH]c2ccccc12)NC(=O)[C@H](Cc1ccccc1)NC(=O)[C@H](Cc1ccccc1)N(C)C(=O)CN)C(=O)N[C@@H](CCCNC(=N)N)C(=O)N[C@@H](CCCNC(=N)N)C(=O)N[C@H](C)C(=O)N[C@@H](CCCNC(=N)N)C(=O)N1CCC[C@H]1C(=O)N[C@@H](CCCCN)C(N)=O | Oprk1 | agonist | CHO cells | 10 µM | baseline: dynorphin A(1-13) amide | adenylyl cyclase activity | 90 ± 8% |
| CC[C@H](C)[C@H](NC(=O)[C@H](CCC(N)=O)NC(=O)[C@H](CC(C)C)NC(=O)[C@@H](NC(=O)CNC(=O)[C@H](Cc1ccc(O)cc1)NC(=O)[C@H](CC(=O)O)NC(=O)[C@@H](NC(=O)[C@H](CO)NC(=O)CNC(=O)[C@H](CC(=O)O)NC(=O)[C@@H](NC(=O)[C@H](CC(N)=O)NC(=O)[C@H](CCCNC(=N)N)NC(=O)[C@H](CC(N)=O)NC(=O)[C@@H](NC(=O)[C@H](C)NC(=O)[C@H](CCC(N)=O)NC(=O)[C@@H](NC(=O)[C@H](CC(N)=O)NC(=O)[C@H](Cc1ccccc1)NC(=O)[C@H](CC(N)=O)NC(=O)[C@H](CO)NC(=O)[C@H](CCC(=O)O)NC(=O)[C@H](Cc1ccccc1)NC(=O)[C@H](CCCCN)NC(=O)[C@H](C)NC(=O)[C@H](C)NC(=O)[C@H](CO)NC(=O)[C@@H](NC(=O)[C@H](Cc1c[nH]c2ccccc12)NC(=O)[C@H](CC(N)=O)NC(=O)CNC(=O)[C@H](CC(C)C)NC(=O)[C@H](CO)NC(=O)[C@H](Cc1ccc(O)cc1)NC(=O)CNC(=O)[C@H](CCCNC(=N)N)NC(=O)[C@H](Cc1ccc(O)cc1)NC(=O)[C@H](CC(N)=O)NC(=O)[C@@H](N)CC(=O)O)C(C)C)[C@@H](C)O)[C@@H](C)O)[C@@H](C)O)[C@@H](C)O)[C@@H](C)CC)C(=O)O | Periplasmic serine endoprotease DegP (degP, Escherichia coli, UniProt P0C0V0, S236A) | sedimentation velocity |  | 30 µM, added: degP 20 µM |  | 12-mer fraction | 66 % mol |
| CC(C)P(=S)(NP(=S)(C(C)C)C(C)C)C(C)C | Alpha-amylase (Bacillus subtilis, UniProt P00691) | binding, FRET |  | 298 K |  | energy transfer efficiency | 25.5% |
| CCN(Cc1ccccc1)C(=O)CCc1nc(CN2CCN(C(=O)Cc3ccc(OC)c(OC)c3)CC2)no1 | SCN9A (Homo sapiens, UniProt Q15858) | sodium current, whole-cell patch clamp | HEK293 stably expressing NaV1.7 | 10 µM | baseline: control, towards hyperpolarisation | inactivation curve shift | 5.81 mV |
| C[N+]1([O-])CCN(C2=Nc3cc(Cl)ccc3Nc3ccccc32)CC1 | CHRM3 (Homo sapiens, UniProt P20309, A239G/Y149C) | calcium signal, agonist, FLIPR |  |  | baseline: clozapine N-oxide | Emax | 100% |
| CCOC(=O)/C=C/[C@H](C[C@@H]1CCNC1=O)NC(=O)[C@H](Cc1ccccc1)NC(=O)[C@H](COC(C)(C)C)NC(=O)OCc1ccccc1 | Genome polyprotein, 3C protease (Coxsackievirus B3, UniProt P03313) | protease activity, cell-based reporter | COS-1 | 50 µM |  | FLuc reporter expression | increased |
| Cc1nc(=O)c(C[n+]2csc(CCO)c2C)c[nH]1 | nicotinamide riboside transporter PnuT (Shewanella woodyi, UniProt B1KPL9) | binding, isothermal titration calorimetry | purified detergent-solubilized protein | 25 °C |  | ΔS | 14 ± 19 J/mol/K |
| CC(CCC(=O)NC(CCC(=O)Nc1cccnc1)C(=O)O)C1CCC2C3C(O)CC4CC(O)CCC4(C)C3CCC12C (stereo not drawn) | SLC10A2 (Homo sapiens, UniProt Q12908) | transport, substrate | ASBT-MDCK cells | unit not given | baseline: taurocholate Jmax | Jmax | 0.298 |
| CCCCCCCCCCCCCCCc1ccc(C(Br)P(=O)(O)O)cc1 (racemic) | Autotaxin (ENPP2, Homo sapiens, UniProt Q13822) |  |  | enzyme substrate complex |  | Ki′ | 2970 nM |
| O=C(O)/C=C/c1ccc(O)cc1 | alpha-amylase | enzyme activity, DNS |  | 1000 µg/mL |  | inhibition | 86.8 ± 1.8% |
| CS(=O)(=O)c1ccc(Cn2cc(C(=O)N[C@H]3CCCC[C@@H]3O)c3c(F)cc(F)cc32)cc1 | CHRM1 (Homo sapiens, UniProt P11229) | calcium mobilization, positive allosteric modulator | CHO | added: acetylcholine EC20 | baseline: acetylcholine maximum | maximal response | 77 ± 5% |
| CC(C)C[C@@H]1NC(=O)[C@@H](NC(=O)CN)CSSC[C@@H]2NC(=O)[C@@H]3CSSC[C@@H](C(=O)N[C@@H](CC(N)=O)C(=O)N[C@@H](Cc4ccccc4)C(=O)N[C@@H](CO)C(=O)N[C@@H](Cc4ccccc4)C(N)=O)NC(=O)[C@H](CC(C)C)NC(=O)[C@H](CCCCN)NC(=O)[C@H](Cc4ccccc4)NC(=O)[C@H](CC(C)C)NC(=O)[C@H](CCCCN)NC(=O)[C@H](CO)NC(=O)[C@H](CSSC[C@H](NC(=O)[C@H](CCCCN)NC(=O)[C@H](Cc4c[nH]c5ccccc45)NC(=O)[C@H](Cc4c[nH]c5ccccc45)NC(=O)[C@H](Cc4ccccc4)NC(=O)[C@H](CCC(=O)O)NC1=O)C(=O)N[C@@H](CC(N)=O)C(=O)N1CCC[C@H]1C(=O)N[C@@H](CC(N)=O)C(=O)N[C@@H](CC(=O)O)C(=O)N[C@@H](CC(=O)O)C(=O)N[C@@H](CCCCN)C(=O)N3)NC(=O)[C@H](CCCCN)NC(=O)[C@H](CC(C)C)NC(=O)[C@H](CCCCN)NC(=O)[C@@H]1CCCN1C(=O)[C@H](CCCNC(=N)N)NC2=O | Piezo1 (Mus musculus, UniProt E2JF22) | mechanosensitive current, whole-cell patch clamp |  |  |  | dissociation rate constant | 0.1 s⁻¹ |
| O=C(O)COc1ccc(Cl)cc1 | Chloride channel protein (Torpedo marmorata, UniProt P21564, C212S) | inside-out patch |  | 1 mM, -80 mV |  | single-channel current amplitude | 0.42 pA |
| COc1ccc(C)cc1NC(=O)OC1CC2CCCC(C1)N2Cc1ccc(CC[18F])cc1 (stereo not drawn) | Tmem97 (Mus musculus, UniProt Q8VD00) | receptor binding, saturation radioligand binding | mouse, EMT6 tumour membrane homogenate |  |  | Bmax | ~3700 fmol/mg protein |
| N=C(N)NCCC[C@@H]1NC(=O)[C@@H](NC(=O)[C@H](Cc2ccccc2)NC(=O)CNC(=O)CNC(=O)[C@H](Cc2ccc(O)cc2)NCc2ccccc2)CC(=O)NC[C@@H](C(=O)N[C@@H](CCCNC(=N)N)C(=O)N2CCC[C@H]2C(=O)N[C@@H](CCCCN)C(N)=O)NC(=O)[C@H](CCCNC(=N)N)NC1=O | Oprk1 | binding |  |  | baseline: zyklophin | relative affinity | 0.23 |
| c1ccc2c(c1)Sc1ccccc1N2CC1CN2CCC1CC2 (stereo not drawn) | srtA (Staphylococcus aureus, UniProt Q2FV99) | binding, fluorescence quenching |  |  |  | Stern-Volmer constant | 5600 L/mol |
| C[C@@]12CC[C@@H]3c4ccc(O)c(Cl)c4CC[C@H]3[C@@H]1CCC2=O | AKR1C1 (Homo sapiens, UniProt Q04828) | enzyme activity, inhibitor, absorbance |  | 100 µM, pH 9 |  | inhibition | 22.5% |
| O=C1OC(=O)C2C3C=CC(C3)C12 (stereo not drawn) | ampC |  |  |  |  | ligand efficiency | 0.31 |
| COc1cncc(B(O)O)c1 | ampC |  |  |  |  | ligand efficiency | 0.66 |
| O=c1oc2c(CNCCc3cccc(F)c3)c(O)ccc2c2c1CCC2 | ache (Electrophorus electricus, UniProt O42275) | peripheral site binding |  | 1 µM |  | propidium displacement | 70% |
| CC1CN1c1cc(O)c2nc(N)sc2c1 (stereo not drawn) | Histone-lysine N-methyltransferase NSD3, SET domain (NSD3, Homo sapiens, UniProt Q9BZ95) | mass spectrometry | NSD3 SET domain 1 µM | 10 µM, 8 h, 32 °C |  | covalent engagement | 14% |
| CC1(CCN2CCc3ccccc3C2)Cc2cc(Cl)ccc2C1=O (single isomer, unassigned) | HTR7 (Homo sapiens, UniProt P34969) | β-arrestin recruitment, agonist, Tango |  |  |  | Hill coefficient | 1 ± 0.1 |
| CC(C)C[C@H](NC(=O)CNC(=O)[C@@H](NC(=O)[C@H](CO)NC(=O)[C@H](CCCCN)NC(=O)[C@H](CC(C)C)NC(=O)[C@H](CC(=O)O)NC(=O)[C@H](CCC(=O)O)NC(=O)[C@H](CC(C)C)NC(=O)[C@@H](NC(=O)C1CC(C)(C)N([O])C1(C)C)C(C)C)C(C)C)C(=O)N[C@@H](Cc1ccccc1)C(=O)O (stereo partly drawn) | Rhodopsin, photoactivated (Meta II) (RHO, Bos taurus, UniProt P02699) | EPR |  |  |  | dissociation time constant | 8 min |
| CC[C@H](C)[C@H](NC(=O)[C@@H](Cc1c[nH]c2ccccc12)NC(=O)[C@@H]1CCCN1C(=O)[C@H](CCCCN)NC(=O)[C@H](CCCCN)NC(=O)CCNC(=O)CCNC(=O)CN1CCN(CC(=O)O)CCN(CC(=O)O)CCN(CC(=O)O)CC1)C(=O)N[C@@H](C[Si](C)(C)C)C(=O)O | NTSR2 (Homo sapiens, UniProt O95665) | intracellular calcium mobilization, agonist, calcium imaging | HT-29 |  | baseline: levocabastine maximum response | efficacy | 90.9% and 91% |
| CC(=O)N[C@@H](CC(C)C)C(=O)N[C@@H](CCC(=O)O)C(=O)N[C@@H](Cc1c[nH]cn1)C(=O)N[C@@H](CC(=O)O)C(=O)Nc1ccc2c(C)cc(=O)oc2c1 | Caspase-4 (Casp4, Mus musculus, UniProt P70343) | substrate |  | concentration not given |  | Vmax | 1190 ± 30.8 RFU/min |
